Experimental data collected from several papers.
Numbers after ± are the reported error.

Cc1[nH]c2ccccc2c1CCNC(=O)c1ccc(N2CCOCC2)cc1 — remaining compound (mouse liver microsomes; 60 min): < 1%
CC(C)=CCC[C@](C)(O[C@@H]1O[C@H](CO)[C@@H](O)[C@H](O)[C@H]1O)[C@H]1CC[C@]2(C)[C@@H]1[C@H](O)C[C@@H]1[C@@]3(C)CC[C@H](O[C@@H]4O[C@H](CO)[C@@H](O)[C@H](O)[C@H]4O[C@@H]4O[C@H](CO)[C@@H](O)[C@H](O)[C@H]4O)C(C)(C)[C@@H]3CC[C@]12C — remaining compound (rat plasma; 5 ng/mL, 24 h, room temperature): 108 ± 7.5%
CC(C)[N+](C)(CCOC(=O)C1c2ccccc2Oc2ccccc21)C(C)C — remaining compound (human whole blood; 5 µM, 0 min): 100%
NC(=O)c1ccccc1NC(=O)c1ccc(-c2ccccc2)cc1 — remaining compound (human plasma; 2 µM, 30 min, 37 °C): 118%
CCOC(=O)[C@H](CCc1ccccc1)N[C@@H](C)C(=O)N1CCC[C@H]1C(=O)O — remaining compound (human plasma; 10 µM, 120 min): 90%
CC[N+]1(C)CCN(c2ccc(NC(=O)c3cccc(C)n3)cc2)CC1 — remaining compound (pooled BALB/c mouse plasma; 1 µM, 0.08333 h): 98.3%
CC[C@H](C)C(=O)O[C@H]1C[C@@H](C)C=C2C=C[C@H](C)[C@H](CC[C@@H]3C[C@@H](O)CC(=O)O3)[C@H]21 — remaining compound (mouse liver microsomes; 45 min): not detected
C=CC(=O)N1CCC(C(=O)NCC(=O)N2CCN(c3nc(-c4cnc(N)nc4C(F)F)nc(N4CCOCC4)n3)CC2)CC1 — remaining compound (microsomes, rat liver, male, Sprague-Dawley; 1 µM, 60 min, 0.5 mg/mL microsomal protein, added: NADPH): 96.5%
CNc1cc[n+](CCNC(=O)c2ccn3c(-c4c(C)noc4C)cnc3c2)cc1.[Cl-] — remaining compound (aqueous buffer; initial, pH 7): 100 % peak area
N#Cc1ccc(Nc2nc(N)cc(Oc3c(F)cc(-c4ccc(C#N)cc4)cc3F)n2)cc1 — remaining compound (human plasma; 1 µM, 5.00 h, pH 7.4, 37 °C): 85%
COc1ccc2cc3[n+](cc2c1OC)CCc1cc2c(cc1-3)OCO2 — remaining compound (rat liver microsomes; 10 µM, 30 min, pH 7.4, added: microsomes 0.5 mg/mL): 11.9 ± 0.1%
O=S(=O)(c1ccc(F)cc1)N1CCNCC1COc1ccc2c(c1)OCO2 (stereo not drawn) — remaining compound (mouse liver microsomes; 90 min): 62 ± 2%
C/C(=N\NC(=O)c1cccc(S(=O)(=O)N2CCN(C)CC2)c1)c1cc(Cl)ccc1O — remaining compound (aqueous buffer; 0 days, 37 °C): 88%
Cc1nc2ccc(OCc3ccc(C(F)(F)F)cc3)cc2[nH]1 — remaining compound (human liver S9; 1 µM, 90 min, pH 7.4): 76%
N=C(N)Nc1cccc(C(=O)NCC(=O)NC[C@H](NC(=O)c2c(Cl)cc(-c3ccc4cn[nH]c4c3)cc2Cl)C(=O)O)c1 — remaining compound (mouse liver microsomes; 45 min): 112%
CO[C@@H](C[C@H]1C(C)=CC[C@@H]2[C@]3(C)C[C@H](O[C@@H]4O[C@@H](C)[C@H](OC(=O)c5cccc(O)c5)[C@@H](O[C@@H]5O[C@H](CO)[C@@H](O)[C@H](O)[C@H]5NC(C)=O)[C@H]4O)[C@@H](O)C(C)(C)[C@H]3CC[C@]21C)[C@H](N)C(=O)O.O=C(O)C(F)(F)F — remaining compound (simulated gastric fluid with pepsin; 1 µM, 30 min, pH 1.2): 100%
CSc1ncc(Br)c(C(=O)N[C@@H](CCC(=O)O)C(=O)N[C@@H](Cc2ccc3ccccc3c2)C(=O)N[C@@H](CC(C)C)C(=O)N[C@@H]2C[C@H]2c2ccccc2)n1 — remaining compound (pooled human plasma; 30 min, 37 °C): 92.3%
c1ccc(-c2cc(NCCCN3CCCCC3)c3ccccc3n2)cc1 — remaining compound (human plasma; 1 h): 95.5%
FC(F)=Cc1cc(C(F)(F)F)cc(C(F)(F)F)c1 — remaining compound (HEPES buffer; 1 mM, 20 h, pH 7.4, 10% acetonitrile): 2%
CC(C(=O)Nc1c(F)cccc1F)N1CCN(c2ccccc2)CC1 (stereo not drawn) — remaining compound (mouse plasma; 1 µM, 4 h, 37 °C): ~91.5%
CCOc1ccc2ccc(=O)oc2c1 — remaining compound (human liver microsomes; 1 µM, 30 min, pH 7.4): 20.9%

For quick reference, copied from above:
CCOC(=O)[C@H](CCc1ccccc1)N[C@@H](C)C(=O)N1CCC[C@H]1C(=O)O — remaining compound (human plasma; 10 µM, 120 min): 90%
CCOc1ccc2ccc(=O)oc2c1 — remaining compound (human liver microsomes; 1 µM, 30 min, pH 7.4): 20.9%
CC(C(=O)Nc1c(F)cccc1F)N1CCN(c2ccccc2)CC1 (stereo not drawn) — remaining compound (mouse plasma; 1 µM, 4 h, 37 °C): ~91.5%
